{"data": "Results collected from several papers", "note": "Each numbered part is a random draw from the data of one study; scales do not carry over between parts.", "UniProt P42336, sequence (whole entry, unmodified, looked up)": "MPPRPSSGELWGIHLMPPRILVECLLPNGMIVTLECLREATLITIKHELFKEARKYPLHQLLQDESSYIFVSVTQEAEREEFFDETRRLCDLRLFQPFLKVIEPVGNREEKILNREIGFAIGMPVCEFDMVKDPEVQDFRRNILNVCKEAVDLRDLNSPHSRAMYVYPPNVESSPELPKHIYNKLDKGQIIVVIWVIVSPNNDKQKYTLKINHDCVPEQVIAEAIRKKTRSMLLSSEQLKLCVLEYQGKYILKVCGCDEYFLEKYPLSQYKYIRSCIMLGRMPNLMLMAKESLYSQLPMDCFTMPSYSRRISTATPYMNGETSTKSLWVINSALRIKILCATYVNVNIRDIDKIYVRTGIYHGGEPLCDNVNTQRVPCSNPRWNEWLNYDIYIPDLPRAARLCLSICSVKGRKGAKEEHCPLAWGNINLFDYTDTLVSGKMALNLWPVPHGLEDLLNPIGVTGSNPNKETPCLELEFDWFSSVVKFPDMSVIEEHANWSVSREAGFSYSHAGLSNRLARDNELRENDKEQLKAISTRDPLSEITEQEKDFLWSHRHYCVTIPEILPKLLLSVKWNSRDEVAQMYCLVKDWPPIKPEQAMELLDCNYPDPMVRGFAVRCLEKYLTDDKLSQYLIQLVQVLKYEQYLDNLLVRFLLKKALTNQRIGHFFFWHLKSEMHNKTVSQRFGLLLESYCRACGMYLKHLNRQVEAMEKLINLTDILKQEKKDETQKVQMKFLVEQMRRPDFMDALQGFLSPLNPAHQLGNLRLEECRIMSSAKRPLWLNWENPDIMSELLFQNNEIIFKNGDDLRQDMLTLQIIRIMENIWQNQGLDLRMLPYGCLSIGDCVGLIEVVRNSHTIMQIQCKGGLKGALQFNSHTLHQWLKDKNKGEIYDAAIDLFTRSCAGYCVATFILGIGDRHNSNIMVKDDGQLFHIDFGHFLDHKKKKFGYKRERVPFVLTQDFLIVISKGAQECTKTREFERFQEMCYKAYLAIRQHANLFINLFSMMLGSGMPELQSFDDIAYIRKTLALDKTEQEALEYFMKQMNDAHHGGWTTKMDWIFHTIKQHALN", "UniProt P36896, sequence (whole entry, looked up)": "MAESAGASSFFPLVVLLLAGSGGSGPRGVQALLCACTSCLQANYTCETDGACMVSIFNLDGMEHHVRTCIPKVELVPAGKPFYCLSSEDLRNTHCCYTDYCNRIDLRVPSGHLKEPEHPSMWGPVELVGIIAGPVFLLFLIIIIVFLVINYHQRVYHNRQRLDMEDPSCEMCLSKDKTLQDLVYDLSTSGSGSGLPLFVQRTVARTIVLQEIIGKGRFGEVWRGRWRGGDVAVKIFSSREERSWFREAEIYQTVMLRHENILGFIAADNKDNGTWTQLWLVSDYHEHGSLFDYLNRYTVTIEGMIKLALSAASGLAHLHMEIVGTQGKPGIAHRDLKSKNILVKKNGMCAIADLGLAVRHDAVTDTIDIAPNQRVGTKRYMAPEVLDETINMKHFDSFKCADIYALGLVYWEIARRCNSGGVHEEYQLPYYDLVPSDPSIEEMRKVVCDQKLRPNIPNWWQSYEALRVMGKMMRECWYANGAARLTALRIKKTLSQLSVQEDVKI", "UniProt P33981, sequence (whole entry, looked up)": "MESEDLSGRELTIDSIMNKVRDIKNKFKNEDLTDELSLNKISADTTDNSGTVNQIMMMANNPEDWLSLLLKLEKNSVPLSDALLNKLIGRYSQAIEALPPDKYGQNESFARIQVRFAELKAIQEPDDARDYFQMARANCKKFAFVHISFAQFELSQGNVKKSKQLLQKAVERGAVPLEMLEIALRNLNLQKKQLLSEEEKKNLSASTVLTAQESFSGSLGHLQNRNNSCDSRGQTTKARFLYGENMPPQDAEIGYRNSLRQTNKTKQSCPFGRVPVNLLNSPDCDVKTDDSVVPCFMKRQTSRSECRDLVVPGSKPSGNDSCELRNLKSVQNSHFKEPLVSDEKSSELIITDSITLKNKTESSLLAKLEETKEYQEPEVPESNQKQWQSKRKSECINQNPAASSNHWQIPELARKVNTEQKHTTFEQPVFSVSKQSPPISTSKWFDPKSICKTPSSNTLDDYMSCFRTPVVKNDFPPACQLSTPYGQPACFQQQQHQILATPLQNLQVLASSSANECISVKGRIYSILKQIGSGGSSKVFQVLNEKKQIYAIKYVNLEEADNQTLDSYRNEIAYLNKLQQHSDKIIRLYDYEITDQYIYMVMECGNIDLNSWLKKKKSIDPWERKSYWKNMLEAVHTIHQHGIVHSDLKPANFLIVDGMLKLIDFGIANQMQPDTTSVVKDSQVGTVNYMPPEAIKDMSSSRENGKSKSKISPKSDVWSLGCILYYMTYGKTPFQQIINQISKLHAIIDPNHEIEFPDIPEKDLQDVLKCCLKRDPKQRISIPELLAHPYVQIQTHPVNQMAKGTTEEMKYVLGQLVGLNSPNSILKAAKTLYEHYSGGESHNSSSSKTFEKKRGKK", "UniProt P51956, sequence (whole entry, looked up)": "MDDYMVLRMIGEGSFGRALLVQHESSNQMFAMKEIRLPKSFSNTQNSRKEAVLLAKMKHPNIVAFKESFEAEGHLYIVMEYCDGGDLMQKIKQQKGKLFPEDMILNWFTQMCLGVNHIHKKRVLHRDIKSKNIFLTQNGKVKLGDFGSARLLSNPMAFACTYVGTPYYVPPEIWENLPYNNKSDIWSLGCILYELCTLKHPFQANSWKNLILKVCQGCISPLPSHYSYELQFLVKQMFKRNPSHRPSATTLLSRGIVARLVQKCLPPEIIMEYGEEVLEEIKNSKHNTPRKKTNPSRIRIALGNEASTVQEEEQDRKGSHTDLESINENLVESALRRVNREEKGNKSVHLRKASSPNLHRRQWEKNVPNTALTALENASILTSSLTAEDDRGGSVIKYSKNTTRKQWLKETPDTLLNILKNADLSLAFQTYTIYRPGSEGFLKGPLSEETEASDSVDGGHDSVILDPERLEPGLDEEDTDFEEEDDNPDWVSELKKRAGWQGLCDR", "UniProt Q13233, sequence (whole entry, looked up)": "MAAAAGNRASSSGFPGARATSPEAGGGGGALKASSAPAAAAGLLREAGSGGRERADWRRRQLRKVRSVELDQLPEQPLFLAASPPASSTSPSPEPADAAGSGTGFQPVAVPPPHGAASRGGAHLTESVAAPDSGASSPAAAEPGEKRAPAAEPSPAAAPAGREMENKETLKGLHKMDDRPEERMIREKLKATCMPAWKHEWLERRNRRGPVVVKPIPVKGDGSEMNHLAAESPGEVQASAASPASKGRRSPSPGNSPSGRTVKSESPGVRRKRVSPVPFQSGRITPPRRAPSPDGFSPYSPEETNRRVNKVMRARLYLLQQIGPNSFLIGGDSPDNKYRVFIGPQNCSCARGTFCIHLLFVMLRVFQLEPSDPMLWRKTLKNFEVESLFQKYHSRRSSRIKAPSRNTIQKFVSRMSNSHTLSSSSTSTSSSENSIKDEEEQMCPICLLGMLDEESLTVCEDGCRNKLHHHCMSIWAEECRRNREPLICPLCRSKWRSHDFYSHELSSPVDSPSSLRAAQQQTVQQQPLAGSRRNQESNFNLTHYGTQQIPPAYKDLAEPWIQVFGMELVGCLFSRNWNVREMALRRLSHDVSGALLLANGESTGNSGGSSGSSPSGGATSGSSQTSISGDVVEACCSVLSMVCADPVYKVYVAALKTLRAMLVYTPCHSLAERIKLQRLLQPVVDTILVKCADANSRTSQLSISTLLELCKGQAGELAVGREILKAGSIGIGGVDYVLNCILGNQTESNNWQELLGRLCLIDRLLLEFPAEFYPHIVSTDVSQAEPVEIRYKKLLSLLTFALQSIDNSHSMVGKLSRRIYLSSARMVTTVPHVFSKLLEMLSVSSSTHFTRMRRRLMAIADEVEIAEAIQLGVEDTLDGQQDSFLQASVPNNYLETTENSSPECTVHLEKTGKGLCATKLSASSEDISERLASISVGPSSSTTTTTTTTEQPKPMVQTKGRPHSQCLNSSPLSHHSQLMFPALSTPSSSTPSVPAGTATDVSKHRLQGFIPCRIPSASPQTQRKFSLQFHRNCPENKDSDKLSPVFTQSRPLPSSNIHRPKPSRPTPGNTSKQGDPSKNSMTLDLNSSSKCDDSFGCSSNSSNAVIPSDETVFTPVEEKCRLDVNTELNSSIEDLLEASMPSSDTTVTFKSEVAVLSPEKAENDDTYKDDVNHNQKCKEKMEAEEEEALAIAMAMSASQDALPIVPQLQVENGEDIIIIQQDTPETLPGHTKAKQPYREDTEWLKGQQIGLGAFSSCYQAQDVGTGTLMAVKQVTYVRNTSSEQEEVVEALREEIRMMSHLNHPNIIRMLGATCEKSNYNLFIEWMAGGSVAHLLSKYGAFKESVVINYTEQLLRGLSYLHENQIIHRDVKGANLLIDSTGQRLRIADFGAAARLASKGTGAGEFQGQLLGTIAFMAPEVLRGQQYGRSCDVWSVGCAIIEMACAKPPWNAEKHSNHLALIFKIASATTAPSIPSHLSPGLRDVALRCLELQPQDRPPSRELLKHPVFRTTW", "UniProt Q00537, sequence (whole entry, looked up)": "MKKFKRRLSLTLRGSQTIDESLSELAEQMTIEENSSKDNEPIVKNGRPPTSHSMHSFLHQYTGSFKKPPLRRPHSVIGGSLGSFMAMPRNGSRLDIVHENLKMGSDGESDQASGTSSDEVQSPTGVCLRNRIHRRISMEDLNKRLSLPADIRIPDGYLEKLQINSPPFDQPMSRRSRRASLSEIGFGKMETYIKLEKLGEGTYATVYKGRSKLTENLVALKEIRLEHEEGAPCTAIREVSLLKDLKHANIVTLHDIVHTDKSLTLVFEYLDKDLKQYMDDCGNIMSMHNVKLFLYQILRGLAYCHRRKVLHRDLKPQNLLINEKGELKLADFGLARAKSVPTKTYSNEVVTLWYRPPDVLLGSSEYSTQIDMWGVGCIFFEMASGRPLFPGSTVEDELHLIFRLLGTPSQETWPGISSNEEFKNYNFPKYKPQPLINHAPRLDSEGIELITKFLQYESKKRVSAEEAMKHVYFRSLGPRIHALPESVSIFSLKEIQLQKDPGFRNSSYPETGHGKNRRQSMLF"}
{"data": "Set 1", "Compound": "CC(C)[C@H](CO)Nc1nc(Nc2cccc(Cl)c2)c2ncn(C(C)C)c2n1", "observed": "enzyme activity", "action": "inhibitor", "tested at": "0.5 µM", "baseline": "control"}
{"target": "IKBKB (Homo sapiens, UniProt O14920)", "remaining activity": "107%"}
{"target": "DAPK2 (Homo sapiens, UniProt Q9UIK4)", "remaining activity": "111%"}
{"target": "MAP3K3 (Homo sapiens, UniProt Q99759)", "remaining activity": "102%"}
{"target": "Cyclin-dependent kinase 5, with p25 (CDK5, Homo sapiens, UniProt Q00535)", "remaining activity": "3.87%"}
{"target": "Cyclin-dependent kinase 4, with cyclin D1 (CDK4, Homo sapiens, UniProt P11802)", "remaining activity": "83.4%"}
{"data": "Set 2", "target": "Interferon regulatory factor 3, full length, phosphomimetic (IRF3, Homo sapiens, UniProt Q14653, residues 1-427, S386D/S396D/S398D/S402D/T404D/S405D)", "technique": "protein-binding microarray", "molecule type": "double-stranded DNA, one strand shown", "medium": "in vitro", "tested at": "2540 nM top", "setting": "60-bp whole probe", "with": "salmon DNA 0.4 mg/ml", "baseline": "random background probes", "reading": "higher = stronger binding", "shared flanks, not repeated": "GCCTAGCAC … GTCTTGATTCGCTTGACGCTGCTG", "Residues (chain)": "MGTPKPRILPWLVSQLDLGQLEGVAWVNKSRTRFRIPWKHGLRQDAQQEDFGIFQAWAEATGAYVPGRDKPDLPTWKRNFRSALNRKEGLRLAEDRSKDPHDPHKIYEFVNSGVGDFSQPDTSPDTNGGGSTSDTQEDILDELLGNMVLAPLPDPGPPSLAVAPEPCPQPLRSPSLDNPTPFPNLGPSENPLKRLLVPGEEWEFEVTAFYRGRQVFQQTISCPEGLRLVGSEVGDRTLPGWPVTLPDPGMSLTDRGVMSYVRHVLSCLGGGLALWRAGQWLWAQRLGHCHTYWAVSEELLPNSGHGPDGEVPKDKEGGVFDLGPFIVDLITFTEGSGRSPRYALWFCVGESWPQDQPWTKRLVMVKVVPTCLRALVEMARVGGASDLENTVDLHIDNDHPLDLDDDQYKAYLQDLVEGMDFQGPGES"}
{"Strand": "TTAGGCCTGGGTATCGGTTAGTGCTAG", "fitted relative affinity [z-score]": 0.0256}
{"Strand": "TTAGATTTGGGGTTTCGATTAGTGCTA", "fitted relative affinity [z-score]": 1.28}
{"Strand": "TCATTTCTACTTCTCTTACTGTGCTAG", "fitted relative affinity [z-score]": 2.85}
{"Strand": "GGCGGTATCCTTTTCCTGACGTGCTAG", "fitted relative affinity [z-score]": 7.59}
{"Strand": "TTAGGACAGCTTCTCCTTTAGTGCTAG", "fitted relative affinity [z-score]": -0.118}
{"Strand": "AACGGTATCGACTTTCGGGACGTGCTA", "fitted relative affinity [z-score]": 1.37}
{"Strand": "CCAGTTCTGGGAAATATTTACGTGCTA", "fitted relative affinity [z-score]": 0.564}
{"Strand": "GACGGTATCGGTCTCGTGACGTGCTAG", "fitted relative affinity [z-score]": 4.57}
{"data": "Set 3", "SMILES": "CC(=O)N1CCC(c2ccc(C(=O)NC3=NCCN3)cc2C(F)(F)F)CC1", "tested at": "1 µM"}
{"target": "MAP3K15 (Homo sapiens, UniProt Q6ZN16)", "observed": "cell-free assay", "technique": "competition with immobilised ligand", "remaining binding": "93%"}
{"target": "AAK1 (Homo sapiens, UniProt Q2M2I8)", "observed": "binding", "remaining binding": "100%"}
{"target": "CDK17 (Homo sapiens, UniProt Q00537)", "observed": "cell-free assay", "technique": "competition with immobilised ligand", "remaining binding": "89%"}
{"target": "Receptor-type tyrosine-protein kinase FLT3, autoinhibited (FLT3, Homo sapiens, UniProt P36888)", "observed": "cell-free assay", "technique": "competition with immobilised ligand", "remaining binding": "100%"}
{"target": "MYLK2 (Homo sapiens, UniProt Q9H1R3)", "observed": "cell-free assay", "technique": "competition with immobilised ligand", "remaining binding": "100%"}
{"target": "TTK (Homo sapiens, UniProt P33981)", "observed": "cell-free assay", "technique": "competition with immobilised ligand", "remaining binding": "100%"}
{"target": "PIK3CA (Homo sapiens, UniProt P42336, E542K)", "observed": "cell-free assay", "technique": "competition with immobilised ligand", "remaining binding": "100%"}
{"target": "DYRK1B (Homo sapiens, UniProt Q9Y463)", "observed": "cell-free assay", "technique": "competition with immobilised ligand", "remaining binding": "37%"}
{"target": "MAP3K1 (Homo sapiens, UniProt Q13233)", "observed": "cell-free assay", "technique": "competition with immobilised ligand", "remaining binding": "86%"}
{"target": "ACVR1B (Homo sapiens, UniProt P36896)", "observed": "cell-free assay", "technique": "competition with immobilised ligand", "remaining binding": "100%"}
{"target": "STK16 (Homo sapiens, UniProt O75716)", "observed": "cell-free assay", "technique": "competition with immobilised ligand", "remaining binding": "100%"}
{"target": "STK32C (Homo sapiens, UniProt Q86UX6)", "observed": "cell-free assay", "technique": "competition with immobilised ligand", "remaining binding": "100%"}
{"target": "PRKD3 (Homo sapiens, UniProt O94806)", "observed": "cell-free assay", "technique": "competition with immobilised ligand", "remaining binding": "100%"}
{"target": "NEK3 (Homo sapiens, UniProt P51956)", "observed": "cell-free assay", "technique": "competition with immobilised ligand", "remaining binding": "63%"}
{"data": "Set 4", "target": "Prothrombin, mature alpha-thrombin (F2, Homo sapiens, UniProt P00734)", "technique": "aptamer microarray, sandwich", "molecule type": "DNA with 2'F-ANA", "medium": "in vitro", "tested at": "200 nM", "setting": "whole 15-mer aptamer, many near background", "with": "Cy3 exosite-II aptamer, 400 nM", "reading": "higher = stronger binding", "strand": "GGTTGGTGTGGTTGG"}
{"Modification": "2'F-ANA at 1 9 12 14 15", "mean fluorescence intensity [a.u.]": 71.5}
{"Modification": "2'F-ANA at 8 10 14", "mean fluorescence intensity [a.u.]": 111}
{"Modification": "2'F-ANA at 1 3 4 6 7 9 10 12 14", "mean fluorescence intensity [a.u.]": 63.5}
{"Modification": "2'F-ANA at 6 7 9 13 15", "mean fluorescence intensity [a.u.]": 319}
{"Modification": "2'F-ANA at 2 4 5 6 7 8 9 10 12 13", "mean fluorescence intensity [a.u.]": 52.9}
{"Modification": "2'F-ANA at 2 3 7 8 9 10 12 13 15", "mean fluorescence intensity [a.u.]": 373}
{"Modification": "2'F-ANA at 1 2 6 7 8 12 13 14", "mean fluorescence intensity [a.u.]": 69.3}
{"Modification": "2'F-ANA at 1 2 7 9 11 13 15", "mean fluorescence intensity [a.u.]": 112}
{"note": "Repeated from above (set 3):"}
{"target": "ACVR1B (Homo sapiens, UniProt P36896)", "observed": "cell-free assay", "technique": "competition with immobilised ligand", "remaining binding": "100%"}
{"target": "STK16 (Homo sapiens, UniProt O75716)", "observed": "cell-free assay", "technique": "competition with immobilised ligand", "remaining binding": "100%"}
{"target": "STK32C (Homo sapiens, UniProt Q86UX6)", "observed": "cell-free assay", "technique": "competition with immobilised ligand", "remaining binding": "100%"}
{"target": "PRKD3 (Homo sapiens, UniProt O94806)", "observed": "cell-free assay", "technique": "competition with immobilised ligand", "remaining binding": "100%"}
